Experimental data pooled from the literature.
Compare with care: the assays were run in different laboratories. Numbers after ± are the reported error.
Rac GTPase-activating protein 1: Rac GTPase-activating protein 1 (Homo sapiens, UniProt Q9H0H5)
USP14: Ubiquitin carboxyl-terminal hydrolase 14 (USP14, Homo sapiens, UniProt P54578)

For O=C(c1cccc(-c2ccc3ncnc(Nc4ccc(OCc5cccc(F)c5)c(Cl)c4)c3c2)c1)N1CCCC1, the EC50 was 18 µM (Leishmania major; intracellular amastigote growth, luciferase; RAW264.7 macrophages).
With CCOC(=O)C1(C)C(Br)=C(Cl)C(=O)N1c1ccc(F)cc1 (centres unmarked) the inhibition was 76.3% (Rac GTPase-activating protein 1; enzyme activity, inhibitor, ADP detection; 10 µM).
With CCCC[C@H](NC(=O)CCCCCCCNC(=O)CN1CCN(CC(=O)O)CCN(CC(=O)O)CC1)C(=O)N[C@H]1CC(=O)NCCCC[C@@H](C(N)=O)NC(=O)[C@H](Cc2c[nH]c3ccccc23)NC(=O)[C@H](CCCNC(=N)N)NC(=O)[C@@H](Cc2ccccc2)NC(=O)[C@H](Cc2c[nH]cn2)NC1=O [technetium-99m labelled] the tissue uptake was 5.32 ± 0.28 %ID/g (C57 mouse, kidneys; intravenous, 0.037 MBq, 0.5 h).
O=C(N/N=C/c1cc[n+](CC2CC2)c2ccccc12)c1ccc2ccc3ccc(C(=O)N/N=C/c4cc[n+](CC5CC5)c5ccccc45)nc3c2n1 gave a ΔTm of 9.6 ± 0.3 °C (MYC parallel G4 DNA; FRET melting; 1 µM, DNA 0.2 µM, together with: duplex DNA competitor 10 µM).
C/C=C/C(=O)Nc1ccc2nc(NCCCCCN(C)C)nc(NCCCCCCN(C)C)c2c1 has an inhibition of 1% (Histone-lysine N-methyltransferase SMYD3 (SMYD3, Homo sapiens, UniProt Q9H7B4); enzyme activity, inhibitor, radiometric; 10 µM).
The inhibition of CCOC(=O)C(Sc1nnc(-c2c[nH]c3ccccc23)n1C)C(=O)OCC is reported as 40.3% (Rac GTPase-activating protein 1; enzyme activity, inhibitor, ADP detection; 20 µM).
The inhibition of CC(=O)C12NC(C)(C)CC1(C)C(=O)C1=C2c2c(c3c4n2C(C)(C)CC2=C4C4(CC(C)(C)NC(C)(C4)C2=O)CC3(C)C)C(=O)C(C)(C)N1 (single isomer, unassigned; (-)) is reported as 2.89 ± 0.02% (Glutamate NMDA receptor; GRIN1/GRIN2B (GRIN1/GRIN2B, Homo sapiens, UniProt Q05586+Q13224); ion current, antagonist, whole-cell patch clamp; HEK293T; 10 µM).
C[n+]1cccc2cc(/C=N/NC(=O)c3ccc4ccc(C(=O)N/N=C/c5ccc6c(ccc[n+]6C)c5)nc4n3)ccc21 has a ΔTm of 0.8 ± 0.4 °C (hp2 hairpin duplex DNA; FRET melting; 1 µM).
Cc1ccc(C)n1-c1ccc(C(=O)O)cc1O has an inhibition of 39% (USP14; enzyme activity, inhibitor; 17 µM).
With COc1ccc2c(c1)-c1nc(N)sc1CC2 the inhibition was 46.4% (Rac GTPase-activating protein 1; GAP activity, malachite green phosphate; concentration not given, orthogonal retest).
For C[Si](C)(C)C[C@H](CN)CC(=O)O, the inhibition was -4% (glycine transporter, mouse; binding, radioligand binding; 250 µM, together with: [3H]glycine).
COc1ccc(N(N=C2Sc3ccccc3C2=O)C(C)=O)cc1 has an inhibition of 32% (USP14; enzyme activity, inhibitor; 17 µM).
The tissue uptake of CC(C)C[C@@H](NC(=O)[C@@H](CC(C)C)NC(=O)[C@@H](CC(=O)O)NC(=O)[C@@H](CC(C)C)NC(=O)[C@@H](CC(C)C)NC(=O)[C@@H](CC(C)C)NC(=O)[C@H](NC(=O)[C@@H](CC(=O)O)NC(=O)[C@H](NC(=O)[C@H]1CCCN1C(=O)[C@@H](Cc1ccccc1)NC(=O)[C@@H](CC(C)C)NC(=O)[C@@H](CC(C)C)NC(=O)[C@@H](CC(=O)O)NC(=O)[C@@H](CC(C)C)NC(=O)[C@@H](Cc1ccc(O)cc1)NC(=O)[C@@H](C)NC(=O)[C@@H](CCCNC(=N)N)NC(=O)[C@@H](Cc1c[nH]c2ccccc12)NC(=O)[C@H]1CCCN1C(=O)[C@@H](CC(N)=O)NC(=O)[C@@H](CCC(N)=O)NC(=O)[C@@H](CC(=O)O)NC(=O)[C@@H](CC(=O)O)NC(=O)[C@@H](CSC1CC(=O)N(CCNC(=O)CN2CCN(CC(=O)O)CCN(CC(=O)O)CC2)C1=O)NC(=O)[C@@H](C)N)[C@H](C)O)[C@H](C)O)C(=O)N[C@H](Cc1c[nH]c2ccccc12)C(=O)O (some centres unmarked) [copper-64 labelled] is reported as 11.2 %ID/g (C57BL/6 mice, female, B16-F10 melanoma, tumor; intravenous, 14.5 h).
For CN(Cc1ccc(/C=C/C(=O)NO)cc1)CC12CC3CC(CC(C3)C1)C2, the inhibition was 11% (human 5-HT7 receptor; agonist radioligand binding; 0.05 µM).
For CCn1cc(C(=O)O)c(=O)c2c(N)c(F)c(NC3CCCCC3)cc21, the inhibition was 16.4% (5'-AMP-activated protein kinase catalytic subunit alpha-1, with beta1, gamma3 (PRKAA1, Homo sapiens, UniProt Q13131); kinase activity; 0.1 µM, together with: ATP at Km).
With CC(=O)c1ccc2c3c(cccc13)NC(C)=N2 the inhibition was 26.5% (Rac GTPase-activating protein 1; enzyme activity, inhibitor, ADP detection; 20 µM).
CC1(C)C=C2C(=NN(c3ccccc3)C(N)=C2C#N)CO1 has an inhibition of 4% (USP14; enzyme activity, inhibitor; 17 µM).
With C=CC(=O)N1Cc2nc(-c3cc(-c4cc(Cl)cnc4Cl)c(F)cc3F)n(-c3ccncn3)c2C1 the inhibition was 3.9% (Phosphatidylinositol 4-kinase type 2-alpha (PI4K2A, Homo sapiens, UniProt Q9BTU6); cell-free assay, inhibitor; 1 µM).
The inhibition of CC1=NN(c2ccccc2)C(=O)C1=NOCC(=O)N1CCCc2ccccc21 is reported as 57% (USP14; enzyme activity, inhibitor; 17 µM).
For C[Si]1(C[C@H](CN)CC(=O)O)CCCC1, the inhibition was 0% (glycine transporter, mouse; binding, radioligand binding; 70 µM, together with: [3H]glycine).
The inhibition of N#CC(=Cc1ccco1)C(N)=C(C#N)C#N is reported as 4% (USP14; enzyme activity, inhibitor; 17 µM).
With CCOC(=O)C1(C)C(Br)=C(Cl)C(=O)N1c1ccc(Cl)cc1 (centres unmarked) the inhibition was 81% (Rac GTPase-activating protein 1; enzyme activity, inhibitor, ADP detection; 10 µM).
With O=C1c2ccccc2C(=O)c2c1oc1c3c(ccc21)OCN(C1CCCC1)C3 the inhibition was 43% (USP14; enzyme activity, inhibitor; 17 µM).
The inhibition of CCOC(=O)c1cnc2c(C)cc(C)cc2c1NCCCN(C)C is reported as 53.4% (Rac GTPase-activating protein 1; enzyme activity, inhibitor, ADP detection; 10 µM).
COc1ccc(C2NC([O-])=C(C#N)C(=O)C2[n+]2ccccc2)cc1 (centres unmarked) has an inhibition of 48% (USP14; enzyme activity, inhibitor; 17 µM).
For O=C(O)C1Nc2ccc(Br)cc2C2C=CCC12 (centres unmarked), the inhibition was 79.2% (Rac GTPase-activating protein 1; enzyme activity, inhibitor, ADP detection; 10 µM).

Excerpt of the above:
C/C=C/C(=O)Nc1ccc2nc(NCCCCCN(C)C)nc(NCCCCCCN(C)C)c2c1 has an inhibition of 1% (Histone-lysine N-methyltransferase SMYD3 (SMYD3, Homo sapiens, UniProt Q9H7B4); enzyme activity, inhibitor, radiometric; 10 µM).
The inhibition of CCOC(=O)C(Sc1nnc(-c2c[nH]c3ccccc23)n1C)C(=O)OCC is reported as 40.3% (Rac GTPase-activating protein 1; enzyme activity, inhibitor, ADP detection; 20 µM).
